Experimental data pooled from the literature.
Parts stem from different laboratories: compare values within a part only. Changes are numbered by the printed parent chain.

Study 1
Target: Histone acetyltransferase KAT6A, winged helix 2, GST fusion (KAT6A, Homo sapiens, UniProt Q92794, residues 85-181)
Technique: protein binding microarray
Form: double-stranded DNA, one strand shown
Sample: in vitro
Concentration: not given
Setting: 8-mer, flanks averaged, mean of 2 arrays, mostly near background
Baseline: not given
Direction: higher = stronger binding
Construct (chain): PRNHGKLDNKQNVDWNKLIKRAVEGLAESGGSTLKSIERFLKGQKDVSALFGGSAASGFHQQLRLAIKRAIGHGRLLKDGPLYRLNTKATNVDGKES
| Sequence | E-score |
| --- | --- |
| ACGGAAAC | -0.203 |
| ATTGCCTA | -0.0478 |
| AGACCGTG | -0.00847 |
| CAGCTGAC | 0.116 |
| AACCTAAC | 0.048 |
| ATAATTCA | 0.0754 |
| CCTACGAA | -0.064 |
| ACATAGCC | -0.0309 |
| CGCGGTCC | 0.11 |
| CGATCTCA | -0.105 |
| CCTAGTAG | -0.147 |
| CTAATCAA | 0.175 |
| ATTGCCGG | 0.081 |
| TCCGATCA | 0.0901 |
| ACCACGGA | -0.274 |
| ACGGTGCC | 0.229 |
| GCACCCGA | 0.213 |
| GTACGCTA | -0.0929 |
| CAATGTAA | -0.0226 |
| ACTGAGCG | 0.0789 |
| CCTTTGCC | -0.0747 |
| CCACCTCA | -0.123 |

Study 2
Target: Protein C-ets-1 (ETS1, Homo sapiens, UniProt P14921, residues 1-441, K379A, full length assumed)
Technique: protein-binding microarray
Form: double-stranded DNA, one strand shown
Sample: in vitro
Concentration: not given
Setting: k-mer, scored over probes, only values ≥0.25
Direction: higher = stronger binding
Residues (chain): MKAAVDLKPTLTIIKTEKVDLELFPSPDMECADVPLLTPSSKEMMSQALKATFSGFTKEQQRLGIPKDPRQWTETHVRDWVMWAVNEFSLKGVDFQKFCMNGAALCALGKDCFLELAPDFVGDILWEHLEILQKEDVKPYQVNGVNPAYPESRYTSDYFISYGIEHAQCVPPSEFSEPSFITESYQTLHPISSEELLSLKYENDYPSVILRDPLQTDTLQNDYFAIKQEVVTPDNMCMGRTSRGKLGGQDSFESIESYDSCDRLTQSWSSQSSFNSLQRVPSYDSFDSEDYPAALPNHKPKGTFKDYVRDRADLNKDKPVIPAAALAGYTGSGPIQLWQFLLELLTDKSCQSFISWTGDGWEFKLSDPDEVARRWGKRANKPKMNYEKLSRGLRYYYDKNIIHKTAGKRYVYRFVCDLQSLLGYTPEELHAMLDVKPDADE
| Sequence | E-score |
| --- | --- |
| TACCGTCA | 0.307 |
| CCGCAACA | 0.294 |
| AATACCGG | 0.445 |
| CCGGCGTA | 0.27 |
| TACTATAA | 0.25 |
| AAGATAAT | 0.25 |
| CCGGGGCA | 0.306 |
| CGGCATGC | 0.26 |
| CTACGTAC | 0.287 |
| CAACCGGC | 0.338 |
| ATGTTGCG | 0.25 |
| AACGACAT | 0.274 |
| ACATGTAT | 0.308 |
| ATTATTTC | 0.253 |
| ATATGTCG | 0.293 |
| CCGTCGTA | 0.296 |

Study 3
Target: RNA binding protein fox-1 homolog 2, RRM domain, GST-SBP tag (RBFOX2, Homo sapiens, UniProt O43251-10, residues 100-194)
Technique: RNA Bind-n-Seq
Form: RNA
Sample: in vitro
Concentration: 365 nM
Setting: natural RNA segment, single round, ends assumed
Baseline: no-protein control
Direction: higher = stronger binding
Shared flanks, not repeated: GGGAGUUCUACAGUCCGACGAUC … UGGAAUUCUCGGGUGCCAA
Target sequence (chain): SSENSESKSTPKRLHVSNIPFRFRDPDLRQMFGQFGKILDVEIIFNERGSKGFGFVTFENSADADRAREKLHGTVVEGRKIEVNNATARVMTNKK
| Sequence | RBNS enrichment (R) |
| --- | --- |
| UGUUUCUAAACUGCUGCUUUGUCUAUUUCCUGCAUUUUAUAGUGAAACUACUAAACAUAAAUAGAUUUUCACUACCACAAAGAAUGAGAAUUAAUGACACUGAAGGAAUG | 0.379 |
| AUAGUUUUAAAAUUAAUCUUUGCAUGAAGGUUGGUUUCGCUUUUUUUCCUUUAAGUUUGUUUUUAAAUGUAUUAGUCCAGGGGAUUUUGCCUUAUGCUGAGGUCAAACUA | 29.9 |
| AAAGGGGAAGACCAGUGCUUCUUAAGACAGUGAGGGGUCUUCCUCCUGUGGCCAGGCGCUCCUGCACGUGCCCACUUCCUGCUCGGUACUGGUACUGGGUACAUGGGUAA | 0.411 |
| GCAGCGAUACCAGAGCCACCCGGACGCCGCUGUGCAGUGCGUGGCCUGCGGCCGGGCUGCCCUUCGCUGCCAGGACACCUGCCCCAGCGCGGCUUGGCCGCCAUCCGGGA | 0.174 |
| UUUAAAAAACAAAAAAUGACAAGAGAGAUGAAAACGUUUGAUUAUUUUCUCAGUGUAUUUUUGUAAAAAAUAUAUAAAGGGGGUGUUAAUCGGUGUAAAUCGCUGUUUGG | 0.594 |
| AGCACAACACUAAUCCUGUUUCCUUAAACCUCCGUUCAAGUGCCCCUAUUUAUUUCAGUGAGAAUGCGUGUCCGGUUGCCUCUGUCCCUGUUUGUGCGUCCUUCCUCCCA | 0.544 |
| GUUUCUAUGCCACUUUGGUCCCCAACCAAAGUGAAUCUGUCCCAUGUUAGGCACUCCUCUGACCUGAAUAAGUUUCCUUUCUCCUUUAUCAGUUCAAGGUGGGAGUCUUU | 0.538 |
| GGAUGAGCUGAGUGGAGCCAGGCUGGCCCAGAGCUGAGAUGGGAGUGCGGUACAAUCUGGAGCCCACAGCUGUCGGUCAGAACCUCCUGUGAGACAGAUGGAACCUUCAC | 0.708 |
| CCUCAGUCCUGUGUCCCUUUUUCUCUUGGGUUGAGCCUGUGGCUCAUCCCCUUUGUCCUUUUGGGAAGCAAGUAUCUAUUCCAGUCUCAAGUCCUGCAGUUGCUGGAGCG | 0.493 |
| GAGGACCUUUAGGUCAAACUCCCUAGUCUCCACCUGAGACCCUGGGAGAGAAGUUUGAAGCACAACUCCCUUAAGGUCUCCAAACCAGACGGUGACGCCUGCGGGACCAU | 0.255 |
| UUGCUCUCGAGGCUUGGAGAGAUGUGUGUCCCUCCCUGGCACUCACUUCAGGCCGCAUGGGCAGGAAUGUGGCCUGGGGCUGGCAGGGUUGGCAGGGCUGCCAUCCCAGC | 0.495 |

Study 4
Target: CCNA1, cyclin fold, Cln2 fusion (human)
Technique: yeast growth competition, sequencing
Sample: yeast
Setting: weak parent motif
Baseline: not given
Direction: higher = stronger binding
Parent: SLBP docking peptide (human); ARYKRKLLINDFG; partner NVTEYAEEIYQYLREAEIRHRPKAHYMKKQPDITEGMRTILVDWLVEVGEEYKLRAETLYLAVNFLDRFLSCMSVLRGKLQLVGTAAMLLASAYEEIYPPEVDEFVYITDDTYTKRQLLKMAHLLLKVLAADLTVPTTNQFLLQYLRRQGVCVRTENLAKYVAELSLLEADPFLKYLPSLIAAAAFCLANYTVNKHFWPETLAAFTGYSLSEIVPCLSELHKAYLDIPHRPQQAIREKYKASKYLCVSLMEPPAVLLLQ
| Substitution | normalised enrichment score |
| --- | --- |
| ARYKRKLYINDFG [L8Y] | 0.227 |
| ARYKRKLLINDQG [F12Q] | 0.366 |
| ARYHRKLLINDFG [K4H] | 0.372 |
| ARYKMKLLINDFG [R5M] | 0.544 |
| ARYQRKLLINDFG [K4Q] | 0.468 |
| ARYKRKLLQNDFG [I9Q] | 0.284 |
| ARYKRKLLINDFH [G13H] | 0.351 |
| ARYKTKLLINDFG [R5T] | 0.189 |
| ARYKRKLLIDDFG [N10D] | 0.291 |
| ARYARKLLINDFG [K4A] | 0.185 |
| ARYKRKLLINNFG [D11N] | 0.026 |
| AMYKRKLLINDFG [R2M] | 0.11 |

Study 5
Target: Centromere-binding protein 1, full length, His-tagged (CBF1, Saccharomyces cerevisiae, UniProt P17106, residues 1-351)
Chain of UniProt P17106 (whole entry, looked up): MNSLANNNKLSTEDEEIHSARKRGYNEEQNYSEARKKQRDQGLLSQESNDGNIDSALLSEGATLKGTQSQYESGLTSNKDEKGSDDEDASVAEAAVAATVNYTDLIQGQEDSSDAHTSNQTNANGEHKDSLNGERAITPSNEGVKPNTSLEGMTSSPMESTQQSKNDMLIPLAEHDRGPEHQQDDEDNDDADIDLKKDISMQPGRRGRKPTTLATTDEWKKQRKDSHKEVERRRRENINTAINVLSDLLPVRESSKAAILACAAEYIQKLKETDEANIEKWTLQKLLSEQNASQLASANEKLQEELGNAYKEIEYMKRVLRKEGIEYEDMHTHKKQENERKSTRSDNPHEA
Technique: competition protein-binding microarray
Form: double-stranded DNA, one strand shown
Sample: in vitro
Concentration: 2 µM
Setting: whole 60-bp probe, lowest competitor level
With: Pho4 competitor, 0.05 µM
Direction: higher = stronger binding
Shared flanks, not repeated: … GTCTTGATTCGCTTGACGCTGCTG
| Sequence | fluorescence intensity [a.u.] |
| --- | --- |
| CTAACGAAGGTTTGAATTGTGGGTGACAAGCCAAGT | 75.6 |
| CTTGTTTGGCTTGCTCACATGGGGCTACAGGTAAAA | 145 |
| CAAACCACTATATCGCACGCACACCAGGAAAGTAAA | 87.8 |
| CAGTTGCGACAGCAGCTCGTGTGAAGGTCGCTGGCG | 47.5 |
| GCAATCTTCCTGAATCACCTGGCACTTTAGATGAAA | 108 |
| TGCGCAACAACTTGGACAGTGGGTGTATGTCTAGAA | 60.2 |
| CCAGGGCCAGAGGGGCACGTGGCGCCGGTGAGTGGC | 681 |
| CATACCCAACCTTTTCACGTGTATTAAGATATTTGT | 993 |
| GTCTTGTCTCATTGGTCTGTGGGTGTCCCCACTTCA | 71.7 |
| TTTTCAAAAATATTGCACGGGCTTTCTGTATATTGA | 110 |
| ACTCGGGTGTCCTGGCATGTGGGTCCAACAATGGTC | 58.3 |
| CTTTCCCGATCTTGCGTCGTGGGTGTAGCACATTTG | 60.9 |
| CGCTAGTACTTTATTCTCGTGGTGAGCATTTGAAGT | 109 |

Study 6
Target: Interferon regulatory factor 3, full length, phosphomimetic (IRF3, Homo sapiens, UniProt Q14653, residues 1-427, S386D/S396D/S398D/S402D/T404D/S405D)
Technique: protein-binding microarray
Form: double-stranded DNA, one strand shown
Sample: in vitro
Concentration: 2540 nM top
Setting: 60-bp whole probe
With: salmon DNA 0.4 mg/ml
Baseline: random background probes
Direction: higher = stronger binding
Shared flanks, not repeated: GCCTAGCAC … GTCTTGATTCGCTTGACGCTGCTG
Target sequence (chain): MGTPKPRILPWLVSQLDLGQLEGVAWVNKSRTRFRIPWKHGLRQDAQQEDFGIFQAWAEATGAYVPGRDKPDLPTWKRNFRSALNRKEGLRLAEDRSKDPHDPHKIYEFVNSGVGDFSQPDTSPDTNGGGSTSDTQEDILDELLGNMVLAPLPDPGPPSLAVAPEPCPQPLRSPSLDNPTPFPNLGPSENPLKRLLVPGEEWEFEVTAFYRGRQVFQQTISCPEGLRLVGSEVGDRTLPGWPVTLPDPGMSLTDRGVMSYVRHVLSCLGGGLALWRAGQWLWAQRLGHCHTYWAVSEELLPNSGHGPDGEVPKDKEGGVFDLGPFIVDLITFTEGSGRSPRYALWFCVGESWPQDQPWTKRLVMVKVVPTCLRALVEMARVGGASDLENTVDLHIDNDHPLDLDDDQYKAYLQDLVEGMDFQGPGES
| Sequence | fitted relative affinity [z-score] |
| --- | --- |
| GACGATCTCAGTCTCAAGACGTGCTAG | 0.826 |
| TCATTCTTTTTTTTCTTACTGTGCTAG | 2.76 |
| TTAGGTCTTGGTTTCGGTTAGTGCTAG | 4.36 |
| TTAGGTTTCGGTTTCGGTTTGTGCTAG | 13.5 |
| TTAGGTATCGCTTTCGGTTAGTGCTAG | 5.62 |
| GCTCCTCTTTTTTTGGTAATGTGCTAG | 1.18 |
| TTAGATTTCAGTTTCGATTTGTGCTAG | 7.29 |
| GACGAACTGCTACTGCTGACGTGCTAG | -0.386 |
| TTAGATTTCAGAGTGGATTAGTGCTAG | 0.441 |
| TTAGGTTTCCTTATCCTTCAGTGCTAG | 7.97 |
| TTAGGTATCGCTATCGGTTAGTGCTAG | 2.71 |
| TTTGGACTGCTACTGCTTTAGTGCTAG | -0.639 |
| TCATTCATGAAATTTTAGACTGTGCTA | 0.332 |
| TACGATTTCAGTTCCGAGACGTGCTAG | 2.64 |
| AAAGTTTTTCATTTTTTTTCGTGCTAG | 1.15 |
| TTAGGTTTCGGTCTCTGTTAGTGCTAG | 8.47 |

Other studies, line by line
Technique: cross-linking MS
| Molecule | partner | sample | setting | with | endpoint | result |
| --- | --- | --- | --- | --- | --- | --- |
| REV3L (Homo sapiens, UniProt O60673) | PFDN1 (Homo sapiens, UniProt O60925) | cell fractions |  | DSSO | cross-linked residues | K1205 to K26 |
| P4HA2 (Homo sapiens, UniProt O15460) | P4HB (Homo sapiens, UniProt P07237) |  | hits only |  | interaction screen | cross-linked |
| YLPM1 (Homo sapiens, UniProt P49750) | PABPC4 (Homo sapiens, UniProt Q13310) | cell fractions |  | DHSO | cross-linked residues | D1887 to E200 |
